Assay results gathered from unrelated publications.
Compare with care: the assays were run in different laboratories. ± marks the error that the study gave.

`CCCC[C@@H]1NC(=O)[C@@H](CC(C)C)NC(=O)[C@H](CCCCNC(=O)CN2CCN(CC(=O)O)CCN(CC(=O)O)CC2)NC(=O)NNC(=O)[C@H](Cc2c[nH]cn2)NC(=O)[C@@H](Cc2c[nH]c3ccccc23)NC1=O` [copper-64 labelled] gave a tissue uptake of 1.14 ± 0.58 %ID/g (Balb/c mice, lungs; intravenous, dose not given).
The tissue uptake of `CC(C)C[C@@H]1NC(=O)[C@H](CC(=O)O)NC(=O)CNC(=O)[C@H](CCCNC(=N)N)NC(=O)[C@H](Cc2ccc(O)cc2)NC(=O)[C@H](CCCCNC(=O)CCc2cn(CCCNC(=O)CCP(=O)(O)CN3CCN(CP(=O)(O)CCC(=O)NCCCn4cc(CCC(=O)NCCCC[C@H]5C(=O)N[C@@H](Cc6ccc(O)cc6)C(=O)N[C@@H](CCCNC(=N)N)C(=O)NCC(=O)N[C@@H](CC(=O)O)C(=O)N[C@@H](CC(C)C)C(=O)N[C@@H](C)C(=O)N[C@@H](Cc6ccc(O)cc6)C(=O)N6CCC[C@@H]6C(=O)N5C)nn4)CCN(CP(=O)(O)CCC(=O)NCCCn4cc(CCC(=O)NCCCC[C@H]5C(=O)N[C@@H](Cc6ccc(O)cc6)C(=O)N[C@@H](CCCNC(=N)N)C(=O)NCC(=O)N[C@@H](CC(=O)O)C(=O)N[C@@H](CC(C)C)C(=O)N[C@@H](C)C(=O)N[C@@H](Cc6ccc(O)cc6)C(=O)N6CCC[C@@H]6C(=O)N5C)nn4)CC3)nn2)N(C)C(=O)[C@H]2CCCN2C(=O)[C@H](Cc2ccc(O)cc2)NC(=O)[C@H](C)NC1=O` [gallium-68 labelled] is reported as 27.9 %ID/g (PET imaging; SCID mice with H2009 tumour, left kidney; 75 min).
For `Cc1cc(-c2ccc(NC(=O)CC[C@H](NC(=O)CN3CCN(CC(=O)O)CCN(CC(=O)O)CCN(CC(=O)O)CC3)C(=O)NCC(=O)N[C@@H](CC(N)=O)C(=O)N[C@H](C(=O)N[C@H](C(=O)N[C@@H](CCCNC(=N)N)C(=O)N[C@@H](CCC(N)=O)C(=O)O)C(C)C)C(C)C)c(C)c2)ccc1/N=N/c1ccc2c(S(=O)(=O)O)cc(S(=O)(=O)O)c(N)c2c1O` [copper-64 labelled], the tissue uptake was 16.6 ± 2.4 %ID/g (nude mice, heart; intravenous, 2 h).
`CC(C)C[C@H](NC(=O)[C@@H](CCCCNC(=O)[C@@H](Cc1ccccc1)NC(=O)CCCCCNC(=O)CN1CCN(CC(=O)O)CCN(CC(=O)O)CCN(CC(=O)O)CC1)NC(=O)[C@H](Cc1ccc(O)cc1)NC(=O)[C@H](CO)NC(=O)[C@H](Cc1c[nH]c2ccccc12)NC(=O)[C@H](Cc1c[nH]cn1)NC(=O)[C@@H]1CCC(=O)N1)C(=O)N[C@@H](CCCNC(=N)N)C(=O)N1CCC[C@H]1C(=O)NCC(N)=O` [indium-111 labelled] gave a tissue uptake of 0.21 ± 0.05 %ID/g (female athymic nude mice, lung; intravenous, 0.037 MBq, 2 h).
The tissue uptake of `N#C[C@@H]1CC(F)(F)CN1C(=O)CNC(=O)c1ccnc2ccc(OCCCN3CCN(C(=O)CN4CCN(CC(N)=O)CCN(CC(N)=O)CCN(CC(N)=O)CC4)CC3)cc12` [lead-203 labelled] is reported as 291 ± 114 %ID/g (male NRG mice HEK293T-hFAP tumour, bladder; intravenous, 100 pmol, 1 h, unblocked).
The tissue uptake of `CC(C)C[C@@H](NC(=O)[C@@H](CC(C)C)NC(=O)[C@@H](CC(=O)O)NC(=O)[C@@H](CC(C)C)NC(=O)[C@@H](CC(C)C)NC(=O)[C@@H](CC(C)C)NC(=O)[C@H](NC(=O)[C@@H](CC(=O)O)NC(=O)[C@H](NC(=O)[C@H]1CCCN1C(=O)[C@@H](Cc1ccccc1)NC(=O)[C@@H](CC(C)C)NC(=O)[C@@H](CC(C)C)NC(=O)[C@@H](CC(=O)O)NC(=O)[C@@H](CC(C)C)NC(=O)[C@@H](Cc1ccc(O)cc1)NC(=O)[C@@H](C)NC(=O)[C@@H](CCCNC(=N)N)NC(=O)[C@@H](Cc1c[nH]c2ccccc12)NC(=O)[C@H]1CCCN1C(=O)[C@@H](CC(N)=O)NC(=O)[C@@H](CCC(N)=O)NC(=O)[C@@H](CC(=O)O)NC(=O)[C@@H](CC(=O)O)NC(=O)[C@@H](CSC1CC(=O)N(CCNC(=O)CN2CCN(CC(=O)O)CCN(CC(=O)O)CC2)C1=O)NC(=O)[C@@H](C)N)[C@H](C)O)[C@H](C)O)C(=O)N[C@H](Cc1c[nH]c2ccccc12)C(=O)O` (stereo partly shown) [copper-64 labelled] is reported as 5.42 %ID/g (C57BL/6 mice, female, B16-F10 melanoma, tumor; intravenous, 1 h).
For `N#C[C@@H]1CC(F)(F)CN1C(=O)CNC(=O)c1ccnc2ccc(OCCCN3CCN(C(=S)Nc4ccc(C[C@H]5CN(CC(N)=O)CCN(CC(N)=O)CCN(CC(N)=O)CCN5CC(N)=O)cc4)CC3)cc12` [lead-203 labelled], the tissue uptake was 3.79 ± 0.85 %ID/g (male NRG mice HEK293T-hFAP tumour, kidneys; intravenous, 100 pmol, 1 h, unblocked).
The tissue uptake of `CCCC[C@@H]1NC(=O)[C@@H](CC(C)C)NC(=O)[C@H](CCCCNC(=O)CN2CCN(CC(=O)O)CCN(CC(=O)O)CC2)NC(=O)[C@@H](CO)NC(=O)[C@H](Cc2c[nH]cn2)NC(=O)[C@@H](Cc2c[nH]c3ccccc23)NC1=O` [copper-64 labelled] is reported as 33.6 ± 15.9 %ID/g (Balb/c mice, lungs; intravenous, dose not given).
The tissue uptake of `C[C@@H](O)[C@@H]1NC(=O)[C@H](CCCCN)NC(=O)[C@@H](Cc2c[nH]c3ccccc23)NC(=O)[C@H](Cc2ccc(O)cc2)NC(=O)[C@@H](NC(=O)[C@@H](Cc2ccccc2)NC(=O)CN2CCN(CC(=O)O)CCN(CC(=O)O)CCN(CC(=O)O)CC2)CSSC[C@@H](C(=O)N[C@H](CO)[C@@H](C)O)NC1=O` [gallium-67 labelled] is reported as 0.16 ± 0.03 %ID/g (gamma counting; ICR mice, male, muscle; iv, 11 kBq/mouse, 1 h).
For `N#C[C@@H]1CC(F)(F)CN1C(=O)CNC(=O)c1ccnc2ccc(OCCCN3CCN(C(=S)Nc4ccc(C[C@H]5CN(Cc6ccccn6)CCN(Cc6ccccn6)CCN(Cc6ccccn6)CCN5Cc5ccccn5)cc4)CC3)cc12` [lead-203 labelled], the tissue uptake was 31.4 ± 1.02 %ID/g (male NRG mice HEK293T-hFAP tumour, liver; intravenous, 100 pmol, 1 h, unblocked).

Some of these lines once more:
The tissue uptake of `C[C@@H](O)[C@@H]1NC(=O)[C@H](CCCCN)NC(=O)[C@@H](Cc2c[nH]c3ccccc23)NC(=O)[C@H](Cc2ccc(O)cc2)NC(=O)[C@@H](NC(=O)[C@@H](Cc2ccccc2)NC(=O)CN2CCN(CC(=O)O)CCN(CC(=O)O)CCN(CC(=O)O)CC2)CSSC[C@@H](C(=O)N[C@H](CO)[C@@H](C)O)NC1=O` [gallium-67 labelled] is reported as 0.16 ± 0.03 %ID/g (gamma counting; ICR mice, male, muscle; iv, 11 kBq/mouse, 1 h).
